Results pooled from the literature.
A part holds a random share of what one study measured. Several values in a cell are separate wells, animals, samples, runs or records.
Sequence of UniProt Q13470 (whole entry, looked up): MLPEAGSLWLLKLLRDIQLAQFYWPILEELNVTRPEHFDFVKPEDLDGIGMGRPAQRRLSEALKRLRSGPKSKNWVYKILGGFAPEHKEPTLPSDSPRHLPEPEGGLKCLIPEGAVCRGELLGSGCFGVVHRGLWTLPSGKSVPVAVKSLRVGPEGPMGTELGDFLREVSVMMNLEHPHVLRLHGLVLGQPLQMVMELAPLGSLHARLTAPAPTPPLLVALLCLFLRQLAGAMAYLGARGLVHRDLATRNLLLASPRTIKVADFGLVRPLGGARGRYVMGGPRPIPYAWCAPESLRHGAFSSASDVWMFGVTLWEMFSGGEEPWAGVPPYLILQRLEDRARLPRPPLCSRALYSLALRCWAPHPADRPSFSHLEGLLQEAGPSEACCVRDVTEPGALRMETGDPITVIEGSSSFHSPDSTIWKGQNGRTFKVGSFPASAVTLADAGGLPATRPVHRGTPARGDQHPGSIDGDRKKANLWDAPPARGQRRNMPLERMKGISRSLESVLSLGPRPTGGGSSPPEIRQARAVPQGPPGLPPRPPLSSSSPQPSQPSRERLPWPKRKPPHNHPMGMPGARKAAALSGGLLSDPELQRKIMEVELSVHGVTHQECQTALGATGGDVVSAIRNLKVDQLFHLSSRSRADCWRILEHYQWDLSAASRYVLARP
Sequence of UniProt P51813 (whole entry, looked up): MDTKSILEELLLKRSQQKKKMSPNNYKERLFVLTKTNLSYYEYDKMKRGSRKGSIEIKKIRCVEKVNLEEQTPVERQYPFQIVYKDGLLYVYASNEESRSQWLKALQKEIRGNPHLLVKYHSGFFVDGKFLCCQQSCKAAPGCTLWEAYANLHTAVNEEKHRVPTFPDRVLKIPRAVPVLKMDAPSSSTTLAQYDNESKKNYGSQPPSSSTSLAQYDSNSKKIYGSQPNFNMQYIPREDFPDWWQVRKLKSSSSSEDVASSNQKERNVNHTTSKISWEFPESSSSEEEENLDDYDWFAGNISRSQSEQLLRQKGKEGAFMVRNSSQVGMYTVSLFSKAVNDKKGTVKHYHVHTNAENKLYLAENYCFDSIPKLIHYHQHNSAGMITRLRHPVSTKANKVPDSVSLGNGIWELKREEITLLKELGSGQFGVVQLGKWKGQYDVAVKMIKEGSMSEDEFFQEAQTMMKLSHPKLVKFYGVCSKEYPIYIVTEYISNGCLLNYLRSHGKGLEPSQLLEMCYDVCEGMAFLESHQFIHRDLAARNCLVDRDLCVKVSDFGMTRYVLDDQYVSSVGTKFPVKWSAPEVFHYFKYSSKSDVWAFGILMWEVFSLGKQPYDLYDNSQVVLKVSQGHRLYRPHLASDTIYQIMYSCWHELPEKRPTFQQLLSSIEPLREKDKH
Sequence of UniProt P54756 (whole entry, looked up): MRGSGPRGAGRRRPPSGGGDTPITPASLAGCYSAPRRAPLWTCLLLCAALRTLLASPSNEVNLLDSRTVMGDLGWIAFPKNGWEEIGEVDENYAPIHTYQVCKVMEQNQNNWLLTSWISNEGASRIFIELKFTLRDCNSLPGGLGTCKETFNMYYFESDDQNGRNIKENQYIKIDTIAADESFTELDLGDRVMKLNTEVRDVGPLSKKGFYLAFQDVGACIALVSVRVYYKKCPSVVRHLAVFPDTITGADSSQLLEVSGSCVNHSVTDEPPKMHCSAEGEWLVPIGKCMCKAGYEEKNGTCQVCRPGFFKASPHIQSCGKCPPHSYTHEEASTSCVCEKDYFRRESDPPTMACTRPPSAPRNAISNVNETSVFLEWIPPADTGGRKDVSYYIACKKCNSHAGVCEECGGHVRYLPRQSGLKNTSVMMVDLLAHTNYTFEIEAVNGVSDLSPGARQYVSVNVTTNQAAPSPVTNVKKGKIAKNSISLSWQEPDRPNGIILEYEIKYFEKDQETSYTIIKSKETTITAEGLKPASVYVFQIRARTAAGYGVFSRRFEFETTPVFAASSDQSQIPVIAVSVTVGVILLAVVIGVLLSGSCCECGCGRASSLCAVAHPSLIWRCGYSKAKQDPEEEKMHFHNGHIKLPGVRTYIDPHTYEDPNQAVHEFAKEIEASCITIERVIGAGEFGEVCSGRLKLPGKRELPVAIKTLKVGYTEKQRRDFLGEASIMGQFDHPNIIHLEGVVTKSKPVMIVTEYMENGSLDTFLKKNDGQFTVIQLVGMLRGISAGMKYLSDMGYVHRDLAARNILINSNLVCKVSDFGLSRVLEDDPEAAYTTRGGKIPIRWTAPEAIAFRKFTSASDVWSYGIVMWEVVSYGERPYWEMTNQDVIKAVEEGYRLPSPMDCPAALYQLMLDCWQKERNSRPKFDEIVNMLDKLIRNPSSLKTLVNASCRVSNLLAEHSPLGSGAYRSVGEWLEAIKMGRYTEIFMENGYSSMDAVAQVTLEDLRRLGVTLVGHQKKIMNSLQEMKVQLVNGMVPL
Sequence of UniProt Q05655 (whole entry, looked up): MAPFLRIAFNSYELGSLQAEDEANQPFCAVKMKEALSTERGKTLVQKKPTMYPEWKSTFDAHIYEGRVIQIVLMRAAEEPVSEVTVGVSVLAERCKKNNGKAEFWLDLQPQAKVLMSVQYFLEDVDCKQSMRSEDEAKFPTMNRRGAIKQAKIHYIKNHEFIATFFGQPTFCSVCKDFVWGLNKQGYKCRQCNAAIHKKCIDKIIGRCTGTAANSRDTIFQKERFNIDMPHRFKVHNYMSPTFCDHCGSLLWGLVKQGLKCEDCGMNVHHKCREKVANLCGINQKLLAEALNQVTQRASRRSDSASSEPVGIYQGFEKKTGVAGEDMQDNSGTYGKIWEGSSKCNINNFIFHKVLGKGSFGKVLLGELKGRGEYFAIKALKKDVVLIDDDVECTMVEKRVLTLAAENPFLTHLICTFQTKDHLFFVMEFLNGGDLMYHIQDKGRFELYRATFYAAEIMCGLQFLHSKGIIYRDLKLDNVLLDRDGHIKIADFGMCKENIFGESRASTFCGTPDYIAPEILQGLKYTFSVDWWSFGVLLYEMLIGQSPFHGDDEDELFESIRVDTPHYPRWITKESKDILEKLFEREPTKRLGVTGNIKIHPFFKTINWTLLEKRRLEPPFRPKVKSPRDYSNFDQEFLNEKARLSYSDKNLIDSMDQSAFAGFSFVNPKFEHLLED
Sequence of UniProt Q96BR1 (whole entry, looked up): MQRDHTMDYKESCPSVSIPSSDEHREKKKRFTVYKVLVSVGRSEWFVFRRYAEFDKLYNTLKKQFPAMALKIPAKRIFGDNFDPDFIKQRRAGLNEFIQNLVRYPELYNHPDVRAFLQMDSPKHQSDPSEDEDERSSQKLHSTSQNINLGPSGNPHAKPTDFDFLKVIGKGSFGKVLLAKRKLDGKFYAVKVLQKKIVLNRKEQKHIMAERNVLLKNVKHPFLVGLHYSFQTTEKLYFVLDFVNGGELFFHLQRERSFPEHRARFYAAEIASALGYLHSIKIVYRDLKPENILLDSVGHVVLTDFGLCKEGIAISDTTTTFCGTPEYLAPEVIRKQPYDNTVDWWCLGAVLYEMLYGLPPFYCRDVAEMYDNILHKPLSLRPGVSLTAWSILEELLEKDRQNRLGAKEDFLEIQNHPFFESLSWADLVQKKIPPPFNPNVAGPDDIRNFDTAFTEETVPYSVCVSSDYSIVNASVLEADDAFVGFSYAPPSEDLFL

Study 1
Target: STE20-like serine/threonine-protein kinase (SLK, Homo sapiens, UniProt Q9H2G2)
Sequence of UniProt Q9H2G2 (whole entry, looked up): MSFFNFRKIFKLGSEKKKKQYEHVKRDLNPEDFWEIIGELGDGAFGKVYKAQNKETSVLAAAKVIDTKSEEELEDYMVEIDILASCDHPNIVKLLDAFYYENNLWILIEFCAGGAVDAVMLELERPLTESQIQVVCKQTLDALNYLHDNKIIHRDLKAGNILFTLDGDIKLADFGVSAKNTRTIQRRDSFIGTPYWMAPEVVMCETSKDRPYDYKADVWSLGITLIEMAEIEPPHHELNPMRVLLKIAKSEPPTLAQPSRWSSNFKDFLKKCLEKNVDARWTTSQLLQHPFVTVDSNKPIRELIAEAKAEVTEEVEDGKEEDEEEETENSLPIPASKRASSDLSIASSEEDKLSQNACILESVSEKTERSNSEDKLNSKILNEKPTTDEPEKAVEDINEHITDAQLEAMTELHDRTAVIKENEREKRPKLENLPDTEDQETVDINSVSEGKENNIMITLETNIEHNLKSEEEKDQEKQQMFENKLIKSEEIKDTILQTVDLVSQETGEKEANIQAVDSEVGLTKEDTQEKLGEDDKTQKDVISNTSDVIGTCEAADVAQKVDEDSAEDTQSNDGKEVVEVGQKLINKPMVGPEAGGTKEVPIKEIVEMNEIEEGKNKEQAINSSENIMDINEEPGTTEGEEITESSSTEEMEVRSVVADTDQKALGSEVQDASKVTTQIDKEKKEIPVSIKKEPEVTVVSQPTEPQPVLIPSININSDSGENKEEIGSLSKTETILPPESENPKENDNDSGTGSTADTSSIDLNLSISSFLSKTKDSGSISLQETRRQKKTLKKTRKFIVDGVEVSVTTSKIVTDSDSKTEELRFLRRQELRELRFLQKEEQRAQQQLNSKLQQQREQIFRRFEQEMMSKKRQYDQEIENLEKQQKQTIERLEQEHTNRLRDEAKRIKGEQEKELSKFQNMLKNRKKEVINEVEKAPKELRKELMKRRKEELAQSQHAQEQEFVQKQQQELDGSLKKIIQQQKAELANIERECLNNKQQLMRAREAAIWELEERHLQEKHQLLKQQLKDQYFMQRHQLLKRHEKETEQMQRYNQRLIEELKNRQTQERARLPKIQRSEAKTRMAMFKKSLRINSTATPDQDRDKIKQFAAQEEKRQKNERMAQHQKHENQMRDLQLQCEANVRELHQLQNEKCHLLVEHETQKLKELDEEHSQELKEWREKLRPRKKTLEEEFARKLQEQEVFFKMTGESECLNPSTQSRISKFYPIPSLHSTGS
Observed: enzyme activity
Action: inhibitor
Tested at: 0.5 µM
Baseline: control
Endpoint: remaining activity
Nc1[nH]nc2nc3ccccc3nc12: 92.5%
COc1cc2ncnc(Nc3ccc(Oc4ccccc4)cc3)c2cc1OC: 88.7%
O=c1c2ccccc2[nH]c(=S)n1CCN1CCC(=C(c2ccc(F)cc2)c2ccc(F)cc2)CC1: 103%
O=C(O)c1ccc2c3c1cccc3c(=O)n1c3ccccc3nc21: 94.1%
N#CC(C#N)=C(N)/C(C#N)=C/c1ccc(O)cc1: 102%
O=C1NC(=O)C(c2cn(CCCn3ccnc3)c3ccccc23)=C1Nc1ccccc1: 39.1%
O=S(=O)(c1cccc2cnccc12)N1CCCNCC1: 95.8%
O=C(CCCc1ccc(-c2ccccc2F)cc1)Nc1ccc(O)cc1: 102%
COc1cc2ncnc(Nc3ccc(F)c(Cl)c3)c2cc1OCCCN1CCOCC1: 83.7%
COc1ccc(OC)c2c(=S)c3ccccc3[nH]c12: 80.2%
CN(C)c1ccc(C=C2C(=O)Nc3ccccc32)cc1: 103%
Cn1c2ccccc2c2c3c(c4c5ccccc5n(CCC#N)c4c21)CNC3=O: 34.1%
Oc1ccc(-c2nc(-c3ccncc3)c(-c3ccc(F)cc3)[nH]2)cc1: 91.2%
NCCNc1ncc(C(N)=O)c(Nc2cccc(C(F)(F)F)c2)n1: 103%
Cn1sc(=O)n(Cc2ccccc2)c1=O: 84.7%

Study 2
Structure (SMILES): c1ccc(Oc2ccc(Nc3c4c(nc5ccccc35)CCC4)cc2)cc1
Method: resazurin
Endpoint: cytotoxicity
HEK293; 0.66 µM, 10% serum: 21% and 12%
J774.1; 16.66 µM, 64 h: 31% and 20%
HEK293; 66.66 µM, 10% serum: 102% and 100%
J774.1; 0.166 µM: -3% and -5%

Study 3
Structure (SMILES): CC(C)(O)c1cncc(-c2nc3ccc(F)cc3n2C2CC2)c1
Observed: cell-free assay
Method: competition with immobilised ligand
Tested at: 1 µM
Endpoint: remaining binding
Non-receptor tyrosine-protein kinase TNK1 (TNK1, Homo sapiens, UniProt Q13470): 100%
Ephrin type-A receptor 5 (EPHA5, Homo sapiens, UniProt P54756): 100%
Cytoplasmic tyrosine-protein kinase BMX (BMX, Homo sapiens, UniProt P51813): 100%
RAC-alpha serine/threonine-protein kinase (AKT1, Homo sapiens, UniProt P31749): 100%
Serine/threonine-protein kinase Sgk3 (SGK3, Homo sapiens, UniProt Q96BR1): 100%
Protein kinase C delta type (PRKCD, Homo sapiens, UniProt Q05655): 100%

Study 4
Cell line: mouse MPNST tumor cells
Method: high-content nuclear imaging
Item: cell number
Tested at: 10 µM
Time: 12 h
Setting: mean of 2 replicates
Baseline: plate mean
Reading: higher = more cells
Endpoint: nuclei count
COc1ncnc(NS(=O)(=O)c2ccc(N)cc2)c1OC: 1.09 z-score
C[C@]12CCC(=O)C=C1CC[C@@H]1[C@@H]2C(=O)C[C@@]2(C)[C@H]1CC[C@]2(O)C(=O)CO: 3.51 z-score
Cn1c(=O)c2[nH]cnc2n(C)c1=O: -0.034 z-score
Clc1cccc(Cl)c1CSc1nnc(-c2cnccn2)s1: -3.61 z-score
Cc1cc2c(cc1Cl)N(C(=O)Nc1ccc(Oc3cccnc3C)nc1)CC2: 0.145 z-score
CC(C)C(NC(=O)Cn1c(-c2ccccc2)ncc(N)c1=O)C(=O)c1nnc(C(C)(C)C)o1 (stereo not drawn): 1.46 z-score
CS(=O)(=O)OCCCCOS(C)(=O)=O: -0.633 z-score and 0.632 z-score
Nc1nc(=O)n([C@@H]2CS[C@H](CO)O2)cc1F: 1.25 z-score

Repeated from above (study 2):
HEK293; 0.66 µM, 10% serum: 21% and 12%
J774.1; 16.66 µM, 64 h: 31% and 20%
